Results gathered from unrelated publications.
A part holds a random share of what one study measured.

Sample 1
Target: RNA binding protein fox-1 homolog 2, RRM domain, GST-SBP tag (RBFOX2, Homo sapiens, UniProt O43251-10, residues 100-194)
Method: RNA Bind-n-Seq
Form: RNA
Medium: in vitro
Concentration: 365 nM
Setting: natural RNA segment, single round, ends assumed
Baseline: no-protein control
Direction: higher = stronger binding
Constant ends, left off below: GGGAGUUCUACAGUCCGACGAUC … UGGAAUUCUCGGGUGCCAA
Target sequence (chain): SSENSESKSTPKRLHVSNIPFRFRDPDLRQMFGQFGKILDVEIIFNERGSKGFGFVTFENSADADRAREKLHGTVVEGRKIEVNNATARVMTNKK
| Strand | RBNS enrichment (R) |
| --- | --- |
| ACUUAGCCCUCAAAUUUCAGUAUCUAUACAGUACUAGACCAUGCAUUCUUAAAAUAUUAGAUACCAGGUAGUAUAUAUUGUUUCUGUACAAAAAUGACUGUAUUCUCUCA | 0.353 |
| GGGAGUGAGGUCAUUCCUGACCCGUGAUGCUUUCAAGGCUUGGUUUUUCUGAUAAUUAUUUUUGCCUGUCAUCCCAAAAACGUAUUGACAUGCGUGUAUAUUACCUGUGA | 0.407 |
| CUUUCUACCUCCCUUUUCGUUGCCUGAGGAGCUGGUGGUUUCAUGAGUUAAUGAUACAUCUUGCAAGGUGUACACAUAGAGAAAAAAACCUAAAAAUGUGGAAAAGCACG | 4.06 |
| AUCCUGUAAUUCUAGAAUUACCUGGUGUCCUGAUGCAUUUUCCACUAGAGGUUGCUAAUCAGCAUGUUUUAGCCCAAGUCCGCCUUCCUGCUGUGGUUAACCUGUUAUGU | 9.27 |
| GACUCUUUAAUGUCAAAAAAACUGAAGGGCAGAAAAAAGGUUCCUUACAUCAAAAUGAAAGUAAUUACAUUAAUAGAAAACUUCCAAGUGGAAUAUUGUUCACAGGCAGC | 0.513 |
| AGCUCUCUGUCCAACUGUUGAUUAUGUGAUUUUUCUGAUACGUCCAUUCUCAAAUGCCAGUGUGUUCACAUCUUCGCUCUGGCCAGCCCAUUCUGUAUUUAAAGCUUUUG | 0.455 |
| UAUGGCUGCCAUUCUCUUCAGCCCUCGCUCUCCCCUUUCCACAGCCUCCACCCCUGACCCCCAUCCUCUUUUCCUACCUCUCUGUUUGGUUUAGAAAUUGCUCAAUAAGU | 0.565 |
| AGGUGCCUUGUAUUUUAAAUCUGUGACAAACCAUGGCAAAUUUUUAAAGGGGAAGUAUUAUUAUAAAAUGAAGAAAUAUGUAUUUCUAAAGGCUAUAUUGCUGUAAACUU | 0.474 |
| AGGUGUCAGAACAGUCUCACAAUGACAUCAGUUUAGACACAUGCCAUAUACACUUGGAUCUCUGAGAGCAGAAACCCAACUCUCACUAGACAUACCUGUGAUGGAACACA | 0.296 |
| UUUCUCGGCCUCCCAAAGUGCUGGGAUUACGGGUGUGAGCCACCGUGCCCGGCCUGCAAACACAUUUUAAUUGACAACACUAGGGCUGUUGUACAAAAUAGUAAUGAUAG | 0.76 |
| GGCACAUAGAACAUUGCUAUCCAUGCAGCCUUUGGGCCCCAGGGAACGGUCACCCUGUAAAGUGCUCAGAGUCGGAGUCCAGCACCUCCCCCAGUGGUGGCAGCUGUUCC | 0.276 |
| CAAACAUUCCUGUGUCACUUAAGAAUGUUAGUAGAGGUCGCUUCUUUGGAAAUUGAGGACUUUUUUUUUUCCUUUGAAAGUAUGGCAUCUGAAGAACACAGUAUCAUGAC | 0.445 |

Sample 2
Target: Interferon regulatory factor 5, full length, phosphomimetic (IRF5, Homo sapiens, UniProt Q13568-2, residues 1-514, K96S/S451D/S453D/S456D/S462D)
Method: protein-binding microarray
Form: double-stranded DNA, one strand shown
Medium: in vitro
Concentration: 250 nM
Setting: 60-bp whole probe
With: salmon DNA 0.4 mg/ml
Baseline: random background probes
Direction: higher = stronger binding
Constant ends, left off below: GCCTAGCAC … GTCTTGATTCGCTTGACGCTGCTG
| Strand | log fluorescence |
| --- | --- |
| ACATCTCTCTTAAATAGGGACGTGCTA | 0.00221 z-score |
| TTAGGTATCGACTTTCGGCTAGTGCTA | 8.4 z-score |
| CTAGGTATCCTTTTCCTTTAGTGCTAG | 0.568 z-score |
| TCATACTTCTCTTTTTGACTGTGCTAG | 0.833 z-score |
| TTAGAACAGGGGACTGGATTAGTGCTA | -0.413 z-score |
| TCATTTTGGTTTTCTCTAACTGTGCTA | 2.48 z-score |
| TCAGAAATTCCTCTGAAACTGTGCTAG | 0.405 z-score |
| GACGATTTCAGAATGGAGACGTGCTAG | 0.427 z-score |
| TTAGGACTGAACTATCGGTTAGTGCTA | 6.03 z-score |
| TCAACTTTCTATCTCTGACTGTGCTAG | 3.53 z-score |
| TTAGATCTCTGACTGGATTAGTGCTAG | -0.315 z-score |
| TCACCTCTAGGTTCTCTGACTGTGCTA | -0.304 z-score |
| TTAGGTTTCGGGTTTCGGTGAGTGCTA | 9.56 z-score |
| TTAGATATCAGGTATCGATTAGTGCTA | 4.52 z-score |
| GAGGATTTCGGGTATCGAGACGTGCTA | 3.67 z-score |
| GACGAACCGAGTATCGAGACGTGCTAG | 1.64 z-score |
| TCATCTTGCAGATGTCGCACTGTGCTA | 0.265 z-score |

Sample 3
Target: Histone acetyltransferase KAT6A, winged helix 1, GST fusion (KAT6A, Homo sapiens, UniProt Q92794, residues 1-85)
Method: protein binding microarray
Form: double-stranded DNA, one strand shown
Medium: in vitro
Concentration: not given
Setting: 8-mer, flanks averaged, mean of 2 arrays, mostly near background
Baseline: not given
Direction: higher = stronger binding
Target sequence (chain): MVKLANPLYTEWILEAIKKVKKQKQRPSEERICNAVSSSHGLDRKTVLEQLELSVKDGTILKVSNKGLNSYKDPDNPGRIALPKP
| Strand | E-score |
| --- | --- |
| CTTTCATC | -0.159 |
| AGCGGTTC | 0.0959 |
| AGACCTGC | -0.155 |
| AAAGTCTC | -0.126 |
| ATTCTGTA | -0.0694 |
| CGCTAAAA | 0.194 |
| ACGTGGAT | -0.134 |
| ACGATGCC | 0.0676 |
| ACTGGAAG | -0.259 |
| AGGCTCTC | 0.00451 |
| ACGGAGTG | 0.264 |
| ATGCAGGG | -0.197 |
| TCGGACAA | 0.0673 |
| AGCCATGA | -0.151 |
| TCTGCGAA | -0.138 |
| CTCGAATA | -0.134 |
| GCGTACGC | 0.405 |
| AGCTATCC | -0.164 |
| ATGGCCGG | 0.118 |
| AGGTCTGG | -0.0541 |
| CCGATTCC | 0.222 |
| GAACAACC | -0.117 |
| CTGGGGCC | 0.0257 |

Sample 4
Target: RING finger protein unkempt homolog, zinc fingers 1-6, SBP tag (UNK, Homo sapiens, UniProt Q9C0B0, residues 30-357)
Sequence of UniProt Q9C0B0 (30-357, looked up): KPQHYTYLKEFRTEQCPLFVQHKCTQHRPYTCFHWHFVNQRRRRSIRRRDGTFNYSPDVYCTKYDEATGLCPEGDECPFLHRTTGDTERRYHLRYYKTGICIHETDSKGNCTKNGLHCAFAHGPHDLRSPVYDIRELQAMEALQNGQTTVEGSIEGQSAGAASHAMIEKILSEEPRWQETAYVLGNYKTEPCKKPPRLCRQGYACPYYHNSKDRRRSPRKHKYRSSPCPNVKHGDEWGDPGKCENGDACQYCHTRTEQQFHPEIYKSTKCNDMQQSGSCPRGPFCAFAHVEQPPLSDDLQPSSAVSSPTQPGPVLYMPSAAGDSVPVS
Method: RNA Bind-n-Seq
Form: RNA
Medium: in vitro
Concentration: 100 nM
Setting: RNA with constant flanks, vertebrate orthologous sites, ends assumed
Baseline: input RNA pool
Direction: higher = stronger binding
Constant ends, left off below: GGGAGUUCUACAGUCCGACGAUC … CAACAGAGGAUUGAGCAUCA
| Strand | bound/input enrichment [ratio] |
| --- | --- |
| ACAGGAGCAGCAUAGGCUGUUUGAGCUUUGGGGAAAUGAGCUUUGCUUUUUAUAUUUAACUAGGAUACUUUUAUAUGAUGGGUGCUUUGAGUGUGAAUGCAGCAGGCUCUUUAUUUCUGA | 1.5 |
| GAUUUGGACCUGGGAGCAGAGCUAGGGAGCUGACUAAAGUAAAGCAGACUUGUAAACUUGUAGCCAUAUGUAGUUGCACAACAACAGUAUCAGCAUAGCAGCUGUGCUAAAGUAUUUAUA | 0.514 |
| GGCGCCGUCCUCCCACUCCGGCCCAGGCUCAGGGACCAGGUGUAGCUGGAGGACCUGCAUUUCAAACCGUUUUCUAAAUGGUCCAGGAAGAGAUGUGACGAAGACCGCAUCUCAAAGUCG | 0.246 |
| GGUAAAAUAUUGGAUGUAGUAUAUAAAUGAUCCAAGGCAGUGACUUCAGCUUUAUAUAUAUUGUUAGUUUUGAAGUUAUUUACAUUUAUUUAAACUUUCAGAUUCGAUUAUUUACUAUUG | 0.696 |
| GUUGGUGCAGAGUGCUCUCUGUAUCAGUGCCCAUCAUCCCUUCUUCAUACCAACUGUCCCUAGUUAUAGGAAUUUAAUAUUUUUAAAAGUUUUACAUUGCUGUAUAUUCAAAGAUUUGUU | 1.15 |
| CGGUUGUAGGAAUGAAAACUUUCAUAGGGAUAACUGUCCAGAGUGAUCACUAGUUUGUACUAGCAGAGUCACUGUCACAUUUUAAUUGUCUGCUUUGUCUGCCACCCGAAACCAAUCAAA | 0.58 |
| CUGAAGCUUUGUGUUUGGCUGCACCUGCAUAAGCUGCUACAAAUAGAAUAAAGAAUUUCAUAGCCUGUAUCUAUCAUUUGGAUGCAUGGAAAACGGGCUUUGCACACAGUGGGUUUGGAG | 1.14 |
| UAUUAGCGUCAUACCAGCAUAUUAACCUCUCGUCUGUGCACAGCUUCAAAUGUUACCGUCUAGUUAGAUUUUUAUUUAAAAUAUGAAAAACUGCUUUUCCCAAGACGUUUUUUAAAAACA | 1.53 |
| GCUCUAGUUCUUAACAACCGACCCUCCUAAAAGAUUUAGAAAAAAGUUUACAACAUAAUCUAGUUUACAGAAAAAUCUUGUGCUAGGAUACUUUUUAAAAAGUAUUUUGAAUAUCAUUAA | 0.707 |
| UCCAAUCUAAGCCAACAGCAGUUCAAAAAUGCUAUUUAUUUGUGUCUGUAAGUUUGUACAUAGUAACAACCUCACAUUGUUGCAGAAUUUUUUUUCCAUGAGUUUGAGUUGUUUUUUUUG | 0.493 |
| CUACAAUAAUGAAAAUCUACAGGAAUUUUUUUAUUUCUCAUUAUCCCCCUUAGGCAUAUUUUAGGCUUUUUACCCCAGGCAGAUCAUUCUGAGUGUGCGAGUGUGUGUGCACAUGUUACA | 1.54 |

A few entries again (sample 3):
| Strand | E-score |
| --- | --- |
| CTGGGGCC | 0.0257 |
| CGCTAAAA | 0.194 |
| ACGTGGAT | -0.134 |
| ATGGCCGG | 0.118 |
| AGGTCTGG | -0.0541 |
| ATTCTGTA | -0.0694 |
| AGACCTGC | -0.155 |
| GCGTACGC | 0.405 |
